Experimental data from different studies.
Parts stem from different laboratories: compare values within a part only.
Chain of UniProt Q15303 (whole entry, looked up): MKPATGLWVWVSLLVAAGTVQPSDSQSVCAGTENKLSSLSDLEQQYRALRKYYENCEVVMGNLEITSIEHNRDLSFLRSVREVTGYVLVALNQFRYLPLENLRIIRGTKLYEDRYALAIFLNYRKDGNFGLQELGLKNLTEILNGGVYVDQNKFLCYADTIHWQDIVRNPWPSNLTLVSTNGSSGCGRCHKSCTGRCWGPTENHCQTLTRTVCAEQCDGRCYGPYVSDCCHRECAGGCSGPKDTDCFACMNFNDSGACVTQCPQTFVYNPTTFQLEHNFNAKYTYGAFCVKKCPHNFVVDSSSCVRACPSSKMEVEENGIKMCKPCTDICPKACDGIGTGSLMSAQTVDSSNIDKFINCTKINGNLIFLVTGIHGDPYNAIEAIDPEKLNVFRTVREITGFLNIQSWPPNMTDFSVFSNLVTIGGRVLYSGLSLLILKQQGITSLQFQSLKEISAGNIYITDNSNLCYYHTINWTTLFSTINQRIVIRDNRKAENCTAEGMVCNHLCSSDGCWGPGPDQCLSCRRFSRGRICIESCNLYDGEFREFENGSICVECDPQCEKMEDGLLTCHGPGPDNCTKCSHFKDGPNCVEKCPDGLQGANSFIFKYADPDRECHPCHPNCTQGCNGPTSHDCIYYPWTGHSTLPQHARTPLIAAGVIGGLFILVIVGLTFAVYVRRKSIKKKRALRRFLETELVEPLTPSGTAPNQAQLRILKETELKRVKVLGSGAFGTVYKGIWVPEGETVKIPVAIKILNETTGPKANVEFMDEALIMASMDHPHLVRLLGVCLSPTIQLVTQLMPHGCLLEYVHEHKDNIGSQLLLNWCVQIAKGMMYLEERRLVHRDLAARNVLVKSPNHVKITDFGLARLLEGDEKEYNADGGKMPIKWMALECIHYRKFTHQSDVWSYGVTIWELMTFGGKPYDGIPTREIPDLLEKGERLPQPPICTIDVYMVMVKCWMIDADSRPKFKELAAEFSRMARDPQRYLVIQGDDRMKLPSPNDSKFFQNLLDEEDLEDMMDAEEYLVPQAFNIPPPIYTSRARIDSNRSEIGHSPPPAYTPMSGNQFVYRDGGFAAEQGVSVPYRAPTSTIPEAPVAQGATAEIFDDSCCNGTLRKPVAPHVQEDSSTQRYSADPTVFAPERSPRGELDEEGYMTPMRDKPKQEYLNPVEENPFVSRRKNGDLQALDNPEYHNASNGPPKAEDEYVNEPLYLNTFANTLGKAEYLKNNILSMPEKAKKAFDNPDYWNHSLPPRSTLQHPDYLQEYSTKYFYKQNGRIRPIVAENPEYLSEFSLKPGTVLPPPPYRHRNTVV

Study 1
SMILES: CC(C)(O)c1cncc(-c2nc3ccc(F)cc3n2C2CC2)c1
Concentration: 1 µM
target	observed	technique	remaining binding [%]
PRKG2 (Homo sapiens, UniProt Q13237)	cell-free assay	competition with immobilised ligand	90
CAMK1 (Homo sapiens, UniProt Q14012)	cell-free assay	competition with immobilised ligand	100
STK32A (Homo sapiens, UniProt Q8WU08)	cell-free assay	competition with immobilised ligand	100
HIPK3 (Homo sapiens, UniProt Q9H422)	cell-free assay	competition with immobilised ligand	93
ERBB4 (Homo sapiens, UniProt Q15303)	cell-free assay	competition with immobilised ligand	100
CDK14 (Homo sapiens, UniProt O94921)	cell-free assay	competition with immobilised ligand	100
FLT3 (Homo sapiens, UniProt P36888)	cell-free assay	competition with immobilised ligand	93
NEK6 (Homo sapiens, UniProt Q9HC98)	cell-free assay	competition with immobilised ligand	100
BLK (Homo sapiens, UniProt P51451)	cell-free assay	competition with immobilised ligand	98
KDR (Homo sapiens, UniProt P35968)	cell-free assay	competition with immobilised ligand	100
TEC (Homo sapiens, UniProt P42680)	cell-free assay	competition with immobilised ligand	100
EPHA1 (Homo sapiens, UniProt P21709)	cell-free assay	competition with immobilised ligand	100
CAMK2B (Homo sapiens, UniProt Q13554)	cell-free assay	competition with immobilised ligand	100
FLT1 (Homo sapiens, UniProt P17948)	cell-free assay	competition with immobilised ligand	100
MAPKAPK2 (Homo sapiens, UniProt P49137)	cell-free assay	competition with immobilised ligand	100
SIK1 (Homo sapiens, UniProt P57059)	–	competition binding	100
FLT3 (Homo sapiens, UniProt P36888, D835Y)	cell-free assay	competition with immobilised ligand	100
EIF2AK2 (Homo sapiens, UniProt P19525)	cell-free assay	competition with immobilised ligand	91

Study 2
Target: DNA polymerase theta, ATPase domain (POLQ, Homo sapiens, UniProt O75417)
Chain of UniProt O75417 (whole entry, unmodified, looked up): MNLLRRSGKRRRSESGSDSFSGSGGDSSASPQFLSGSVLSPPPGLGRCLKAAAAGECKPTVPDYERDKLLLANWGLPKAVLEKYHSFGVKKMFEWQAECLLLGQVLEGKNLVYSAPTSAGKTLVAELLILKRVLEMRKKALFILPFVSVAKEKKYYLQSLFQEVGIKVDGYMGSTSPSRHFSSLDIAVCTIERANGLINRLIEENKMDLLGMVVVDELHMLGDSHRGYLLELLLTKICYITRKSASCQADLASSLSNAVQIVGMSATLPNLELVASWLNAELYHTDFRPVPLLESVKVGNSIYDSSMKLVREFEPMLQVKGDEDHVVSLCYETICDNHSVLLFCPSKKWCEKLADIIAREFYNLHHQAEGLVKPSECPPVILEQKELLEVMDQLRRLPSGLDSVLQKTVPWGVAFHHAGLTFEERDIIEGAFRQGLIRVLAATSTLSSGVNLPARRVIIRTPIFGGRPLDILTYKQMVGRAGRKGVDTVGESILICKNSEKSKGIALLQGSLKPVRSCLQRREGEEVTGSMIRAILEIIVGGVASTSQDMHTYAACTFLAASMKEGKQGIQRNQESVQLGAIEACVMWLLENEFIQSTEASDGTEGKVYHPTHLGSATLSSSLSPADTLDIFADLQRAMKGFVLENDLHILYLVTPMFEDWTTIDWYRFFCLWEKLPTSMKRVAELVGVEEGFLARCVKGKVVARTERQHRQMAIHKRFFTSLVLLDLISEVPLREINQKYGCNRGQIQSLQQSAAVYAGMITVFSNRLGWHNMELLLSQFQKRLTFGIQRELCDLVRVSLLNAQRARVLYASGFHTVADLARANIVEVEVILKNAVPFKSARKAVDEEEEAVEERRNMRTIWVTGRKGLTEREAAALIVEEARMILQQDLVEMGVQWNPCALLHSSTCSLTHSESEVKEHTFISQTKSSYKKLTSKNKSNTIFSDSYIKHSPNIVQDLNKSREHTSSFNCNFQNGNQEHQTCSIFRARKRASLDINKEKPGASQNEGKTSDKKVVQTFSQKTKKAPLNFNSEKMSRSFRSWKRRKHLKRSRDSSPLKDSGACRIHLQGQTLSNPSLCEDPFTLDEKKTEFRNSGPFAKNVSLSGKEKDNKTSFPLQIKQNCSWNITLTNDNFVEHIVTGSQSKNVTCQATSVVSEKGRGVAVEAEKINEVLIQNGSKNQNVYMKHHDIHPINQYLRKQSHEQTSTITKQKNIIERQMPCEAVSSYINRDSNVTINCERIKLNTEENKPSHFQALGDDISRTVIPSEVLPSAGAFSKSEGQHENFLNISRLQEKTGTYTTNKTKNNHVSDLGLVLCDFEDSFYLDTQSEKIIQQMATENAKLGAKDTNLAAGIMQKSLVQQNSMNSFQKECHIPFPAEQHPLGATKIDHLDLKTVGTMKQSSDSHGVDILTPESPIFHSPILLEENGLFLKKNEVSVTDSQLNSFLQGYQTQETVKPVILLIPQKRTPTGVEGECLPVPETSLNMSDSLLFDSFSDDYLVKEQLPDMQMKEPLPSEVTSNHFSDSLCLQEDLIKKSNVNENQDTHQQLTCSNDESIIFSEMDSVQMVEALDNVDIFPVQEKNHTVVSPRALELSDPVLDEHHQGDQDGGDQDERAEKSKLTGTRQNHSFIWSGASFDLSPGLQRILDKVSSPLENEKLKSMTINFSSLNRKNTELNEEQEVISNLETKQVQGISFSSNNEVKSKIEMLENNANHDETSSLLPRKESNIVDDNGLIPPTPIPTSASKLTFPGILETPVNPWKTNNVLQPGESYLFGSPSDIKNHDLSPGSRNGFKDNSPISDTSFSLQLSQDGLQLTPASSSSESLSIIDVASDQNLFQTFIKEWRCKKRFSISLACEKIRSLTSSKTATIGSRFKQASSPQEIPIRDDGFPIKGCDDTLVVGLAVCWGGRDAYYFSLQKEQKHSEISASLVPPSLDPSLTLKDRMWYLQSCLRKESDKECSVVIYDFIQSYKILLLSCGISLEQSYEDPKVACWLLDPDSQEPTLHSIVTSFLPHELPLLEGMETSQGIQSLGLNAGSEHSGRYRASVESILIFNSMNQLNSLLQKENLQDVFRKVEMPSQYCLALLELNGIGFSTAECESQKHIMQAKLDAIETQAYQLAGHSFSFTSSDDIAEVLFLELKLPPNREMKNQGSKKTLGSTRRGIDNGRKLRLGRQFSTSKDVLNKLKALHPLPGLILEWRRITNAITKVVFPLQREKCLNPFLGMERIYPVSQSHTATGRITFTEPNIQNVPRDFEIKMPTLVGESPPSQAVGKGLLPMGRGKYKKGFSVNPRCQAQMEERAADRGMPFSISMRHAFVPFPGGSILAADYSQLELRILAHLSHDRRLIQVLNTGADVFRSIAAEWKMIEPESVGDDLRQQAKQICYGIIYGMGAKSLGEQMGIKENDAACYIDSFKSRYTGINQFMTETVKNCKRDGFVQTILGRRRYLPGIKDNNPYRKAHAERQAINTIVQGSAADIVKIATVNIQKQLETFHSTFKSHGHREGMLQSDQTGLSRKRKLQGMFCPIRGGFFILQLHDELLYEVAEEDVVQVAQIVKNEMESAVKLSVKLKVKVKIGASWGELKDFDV
Observed: enzyme activity
Mode: inhibitor
Concentration: 77 µM
Reference: untreated
Compound	remaining activity
O=c1cc[nH]c(=O)[nH]1	91.6%
CC1(C)Cc2c(-c3ccccc3)c(-c3ccc(Cl)cc3)c(CC(=O)O)n2C1	70.2%
CCCCOC(=O)c1ccc(O)cc1	109%
O=C1OC(=O)[C@H]2[C@@H]1[C@H]1CC[C@H]2O1	97.3%
Cc1cc(Cn2cnc3c2C[C@@H](C(=O)O)N(C(=O)C(c2ccccc2)c2ccccc2)C3)ccc1N(C)C	89.6%
NCC[C@H](O)C(=O)N[C@@H]1C[C@H](N)[C@@H](O[C@H]2O[C@H](CN)[C@@H](O)[C@H](O)[C@H]2O)[C@H](O)[C@H]1O[C@H]1O[C@H](CO)[C@@H](O)[C@H](N)[C@H]1O	96%

Study 3
Target: RAF proto-oncogene serine/threonine-protein kinase (RAF1, Homo sapiens, UniProt P04049)
Chain of UniProt P04049 (whole entry, looked up): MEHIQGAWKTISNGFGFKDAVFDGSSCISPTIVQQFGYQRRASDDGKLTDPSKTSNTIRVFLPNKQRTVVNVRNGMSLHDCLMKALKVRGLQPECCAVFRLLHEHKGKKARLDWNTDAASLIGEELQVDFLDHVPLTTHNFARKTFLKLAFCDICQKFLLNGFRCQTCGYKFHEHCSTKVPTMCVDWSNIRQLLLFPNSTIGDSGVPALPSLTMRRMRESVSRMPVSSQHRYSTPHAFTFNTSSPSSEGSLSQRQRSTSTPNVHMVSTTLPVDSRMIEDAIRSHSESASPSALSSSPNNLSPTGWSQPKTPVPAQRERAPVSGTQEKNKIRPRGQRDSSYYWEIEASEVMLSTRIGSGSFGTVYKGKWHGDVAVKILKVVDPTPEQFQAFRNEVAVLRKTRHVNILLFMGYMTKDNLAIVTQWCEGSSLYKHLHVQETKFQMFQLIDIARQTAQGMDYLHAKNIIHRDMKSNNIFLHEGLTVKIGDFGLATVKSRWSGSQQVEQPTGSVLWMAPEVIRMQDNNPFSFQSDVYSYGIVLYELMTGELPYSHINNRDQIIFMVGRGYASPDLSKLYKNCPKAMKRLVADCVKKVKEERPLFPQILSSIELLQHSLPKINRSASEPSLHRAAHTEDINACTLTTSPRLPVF
Observed: enzyme activity
Mode: inhibitor
Concentration: 0.5 µM
Reference: control
Compound	remaining activity [%]
O=Nc1c(-c2c(O)[nH]c3ccccc23)[nH]c2ccccc12	99.3
CCN(CC)CCCCN1c2ccccc2Oc2ccc(Cl)cc21	105
NC(=O)c1ccc(-c2nc(-c3ccc4c(c3)OCCO4)c(-c3ccccn3)[nH]2)cc1	91.7
CC(C)n1cnc2c(Nc3cccc(Cl)c3)nc(NCCO)nc21	105
c1cc(-c2cnn3cc(-c4ccc(OCCN5CCCCC5)cc4)cnc23)ccn1	102
Nc1nc(Nc2ccc(S(N)(=O)=O)cc2)nn1C(=S)Nc1c(F)cccc1F	110
O=C1c2ccccc2-c2nc3nnnn3nc21	76.1
COc1cc2c(Nc3ccc(Br)cc3F)ncnc2cc1OCC1CCN(C)CC1	81.1
CC(C)N(CCC(=O)c1ccc2ccccc2c1)Cc1ccccc1	87.3
Clc1ccc(Nc2nnc(Cc3ccncc3)c3ccccc23)cc1	93.3
N#C/C(=C(/N)SC1C=CC=CC1)c1cccc(C(O)c2ccncc2)c1 (stereo not drawn)	99.1

Study 4
Target: Calcium/calmodulin-dependent protein kinase type II subunit alpha (CAMK2A, Homo sapiens, UniProt Q9UQM7)
Chain of UniProt Q9UQM7 (whole entry, looked up): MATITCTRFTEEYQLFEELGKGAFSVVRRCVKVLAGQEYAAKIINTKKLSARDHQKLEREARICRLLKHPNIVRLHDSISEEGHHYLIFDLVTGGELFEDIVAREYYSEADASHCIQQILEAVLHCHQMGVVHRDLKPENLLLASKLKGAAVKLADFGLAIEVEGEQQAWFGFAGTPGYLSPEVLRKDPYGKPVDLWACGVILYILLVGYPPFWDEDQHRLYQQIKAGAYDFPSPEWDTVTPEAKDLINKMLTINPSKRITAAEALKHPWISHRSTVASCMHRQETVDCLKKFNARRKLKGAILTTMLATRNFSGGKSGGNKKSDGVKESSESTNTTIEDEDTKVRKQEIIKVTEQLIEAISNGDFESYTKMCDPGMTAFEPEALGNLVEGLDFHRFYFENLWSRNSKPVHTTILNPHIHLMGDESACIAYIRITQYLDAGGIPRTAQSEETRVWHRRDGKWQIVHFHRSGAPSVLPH
Observed: enzyme activity
Mode: inhibitor
Concentration: 10 µM
Compound	inhibition [%]
Nc1ncnc2c1ncn2[C@@H]1O[C@H](CO)[C@@H](O)[C@H]1O	-7
O=c1c(O)c(-c2cc(O)c(O)c(O)c2)oc2cc(O)ccc12	-33
Cc1ccc2nc(C)ccc2c1	20
C[C@H](O)[C@H](O)[C@@H](O)[C@@H](O)C=O	-26
Cc1cn([C@@H]2O[C@H](CO)[C@@H](O)[C@H]2O)c(=O)[nH]c1=O	6
CC(=O)OCC(=O)[C@@]1(O)CC[C@H]2[C@@H]3CCC4=CC(=O)C=C[C@]4(C)[C@H]3[C@@H](O)C[C@@]21C	2
CCCCCCCCCCCC1=C(O)C(=O)C=C(O)C1=O	-28

A few entries again (study 1):
target	observed	technique	remaining binding [%]
PRKG2 (Homo sapiens, UniProt Q13237)	cell-free assay	competition with immobilised ligand	90
CAMK1 (Homo sapiens, UniProt Q14012)	cell-free assay	competition with immobilised ligand	100
STK32A (Homo sapiens, UniProt Q8WU08)	cell-free assay	competition with immobilised ligand	100
HIPK3 (Homo sapiens, UniProt Q9H422)	cell-free assay	competition with immobilised ligand	93
ERBB4 (Homo sapiens, UniProt Q15303)	cell-free assay	competition with immobilised ligand	100
CDK14 (Homo sapiens, UniProt O94921)	cell-free assay	competition with immobilised ligand	100
FLT3 (Homo sapiens, UniProt P36888)	cell-free assay	competition with immobilised ligand	93
